# Assay results gathered from unrelated publications.
# Compare with care: the assays were run in different laboratories.
Structure (SMILES),test,system,setting,endpoint,value
CNC(=O)c1cc(Oc2ccc(NC(=O)Nc3cc(C(C)(C)C)nn3-c3ccc4ncccc4c3)c(F)c2)ccn1,phase clinical trial,human patients,"oral, 100 mg twice daily, at dose onset",patients with related malignant hypertension,6%
Cn1cncc1-c1c(F)cncc1NC(=O)c1c(N)nn2cc(F)cnc12,,human patients,"oral, 150 mg twice daily, 4 days on 3 days off",patients grade ≥3 Hyperkalemia,0%
C[C@@H]1OC(=O)NN=C1c1ccc(-c2ccc(F)cc2)c(C(F)(F)F)c1,"phase I trial, measured: Diarrhoea all grades",human patients,5 mg loading then 0.25 mg daily,patients with adverse event,0%
Cc1cn([C@H]2O[C@@H](CO[P@@](=O)(N[C@@H](C)C(=O)OC(C)C)Oc3ccccc3)[C@H](O)[C@H]2F)c(=O)[nH]c1=O,measured: common cold,human,10 mg,patients with TEAE,0%
C=CC(=O)Nc1cc(Nc2nccc(Nc3cc(Cl)c(F)cc3C(C)(C)O)n2)c(OC)cc1N1CC[C@@H](N(C)C)C1,,human patients,"oral, 50 mg, treatment-emergent adverse events",patients with rash,50%
O=C1Nc2cc3[nH]nc(-c4ccncc4)c3cc2CN1Cc1ccccc1,CTCAE v4.03,"human, relapsed or refractory advanced solid tumours","intravenous, 4.8 mg/kg, pooled schedules",patients with QTc prolongation,0%
COc1ncnn2ccc(-c3cnc4nc(C)n(Cc5nnc([C@@H](C)F)o5)c4c3)c12,,human,"oral, dose not given, grade 4",patients with amylase increased,0%
COc1ccc(-c2c(-c3ccc(C#N)c(F)c3)nc(N3CCC(N)CC3)n(C)c2=O)cc1F,measured: biliary tract infection,human patients,"oral, dose not given, dose escalation",patients with serious TEAE,2%
C[C@]1(O)C[C@@](N)(c2ccc(-c3nc4n(c3-c3ccccc3)COc3ccncc3-4)cc2)C1,,"human, advanced or metastatic solid tumours","once daily, dose escalation total, any grade",patients with Diarrhea TEAE,33.3%

# A few entries again:
Structure (SMILES),test,system,setting,endpoint,value
COc1ncnn2ccc(-c3cnc4nc(C)n(Cc5nnc([C@@H](C)F)o5)c4c3)c12,,human,"oral, dose not given, grade 4",patients with amylase increased,0%
